Measured values from different studies.
Every numbered part comes from another study and shows a few of its results, in no order. “And” joins repeats or separate records; there may be more than shown. Numbers after ± are the reported error.
UniProt Q9Y5S2, sequence (whole entry, looked up): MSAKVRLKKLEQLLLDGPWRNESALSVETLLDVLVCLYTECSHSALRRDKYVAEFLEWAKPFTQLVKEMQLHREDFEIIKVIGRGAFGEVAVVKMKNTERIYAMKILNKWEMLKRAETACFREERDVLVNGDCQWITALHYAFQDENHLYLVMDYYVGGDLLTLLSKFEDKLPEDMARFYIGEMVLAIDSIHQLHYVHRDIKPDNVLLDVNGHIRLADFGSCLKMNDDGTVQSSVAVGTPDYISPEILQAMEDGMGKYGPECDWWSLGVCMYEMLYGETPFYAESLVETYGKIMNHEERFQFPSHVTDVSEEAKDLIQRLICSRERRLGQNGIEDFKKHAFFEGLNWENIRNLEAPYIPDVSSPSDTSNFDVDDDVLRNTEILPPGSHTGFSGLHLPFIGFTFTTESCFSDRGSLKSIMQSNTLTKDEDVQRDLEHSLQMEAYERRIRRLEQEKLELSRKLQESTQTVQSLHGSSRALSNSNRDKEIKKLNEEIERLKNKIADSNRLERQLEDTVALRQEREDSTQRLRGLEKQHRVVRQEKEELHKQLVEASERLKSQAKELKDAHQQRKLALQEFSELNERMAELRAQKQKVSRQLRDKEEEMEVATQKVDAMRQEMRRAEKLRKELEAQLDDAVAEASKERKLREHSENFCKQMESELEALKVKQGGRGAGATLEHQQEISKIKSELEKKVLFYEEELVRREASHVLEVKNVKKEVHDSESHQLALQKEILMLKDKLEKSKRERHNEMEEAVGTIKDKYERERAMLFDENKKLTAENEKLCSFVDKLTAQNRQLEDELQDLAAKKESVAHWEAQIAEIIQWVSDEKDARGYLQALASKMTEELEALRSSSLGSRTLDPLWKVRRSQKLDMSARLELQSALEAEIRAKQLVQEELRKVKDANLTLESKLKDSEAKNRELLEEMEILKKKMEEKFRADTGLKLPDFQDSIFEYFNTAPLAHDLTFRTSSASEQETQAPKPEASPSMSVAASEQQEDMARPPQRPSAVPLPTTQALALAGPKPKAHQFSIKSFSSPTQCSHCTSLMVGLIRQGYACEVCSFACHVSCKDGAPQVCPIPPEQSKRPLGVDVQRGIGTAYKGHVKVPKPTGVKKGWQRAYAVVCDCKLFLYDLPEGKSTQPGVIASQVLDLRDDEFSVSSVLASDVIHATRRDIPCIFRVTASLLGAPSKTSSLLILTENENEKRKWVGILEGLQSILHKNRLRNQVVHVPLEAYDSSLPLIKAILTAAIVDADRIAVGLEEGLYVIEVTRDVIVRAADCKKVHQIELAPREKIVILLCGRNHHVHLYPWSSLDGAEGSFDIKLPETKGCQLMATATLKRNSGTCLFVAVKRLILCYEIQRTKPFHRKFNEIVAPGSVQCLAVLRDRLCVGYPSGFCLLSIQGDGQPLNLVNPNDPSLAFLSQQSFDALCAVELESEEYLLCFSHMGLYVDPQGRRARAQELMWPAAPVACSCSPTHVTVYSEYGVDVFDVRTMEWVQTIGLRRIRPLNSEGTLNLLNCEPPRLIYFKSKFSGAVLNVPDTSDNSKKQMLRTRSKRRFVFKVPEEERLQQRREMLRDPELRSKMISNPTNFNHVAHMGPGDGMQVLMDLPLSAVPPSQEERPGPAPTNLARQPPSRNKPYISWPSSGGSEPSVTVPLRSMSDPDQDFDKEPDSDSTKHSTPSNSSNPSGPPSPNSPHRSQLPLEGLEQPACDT
UniProt O14757, sequence (whole entry, looked up): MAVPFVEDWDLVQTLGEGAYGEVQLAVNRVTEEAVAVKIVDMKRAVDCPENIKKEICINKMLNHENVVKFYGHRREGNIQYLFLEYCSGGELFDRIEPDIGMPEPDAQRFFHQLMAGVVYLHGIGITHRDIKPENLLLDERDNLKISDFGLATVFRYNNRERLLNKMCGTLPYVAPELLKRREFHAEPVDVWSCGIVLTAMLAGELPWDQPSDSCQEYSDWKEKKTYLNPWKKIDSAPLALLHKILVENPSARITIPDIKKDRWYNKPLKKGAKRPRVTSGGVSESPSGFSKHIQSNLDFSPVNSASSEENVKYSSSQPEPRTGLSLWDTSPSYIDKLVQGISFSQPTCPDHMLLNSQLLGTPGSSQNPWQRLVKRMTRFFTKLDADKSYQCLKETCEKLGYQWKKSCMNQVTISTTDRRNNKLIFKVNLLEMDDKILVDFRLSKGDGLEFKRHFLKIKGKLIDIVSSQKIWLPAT
UniProt Q9Y2U5, sequence (whole entry, looked up): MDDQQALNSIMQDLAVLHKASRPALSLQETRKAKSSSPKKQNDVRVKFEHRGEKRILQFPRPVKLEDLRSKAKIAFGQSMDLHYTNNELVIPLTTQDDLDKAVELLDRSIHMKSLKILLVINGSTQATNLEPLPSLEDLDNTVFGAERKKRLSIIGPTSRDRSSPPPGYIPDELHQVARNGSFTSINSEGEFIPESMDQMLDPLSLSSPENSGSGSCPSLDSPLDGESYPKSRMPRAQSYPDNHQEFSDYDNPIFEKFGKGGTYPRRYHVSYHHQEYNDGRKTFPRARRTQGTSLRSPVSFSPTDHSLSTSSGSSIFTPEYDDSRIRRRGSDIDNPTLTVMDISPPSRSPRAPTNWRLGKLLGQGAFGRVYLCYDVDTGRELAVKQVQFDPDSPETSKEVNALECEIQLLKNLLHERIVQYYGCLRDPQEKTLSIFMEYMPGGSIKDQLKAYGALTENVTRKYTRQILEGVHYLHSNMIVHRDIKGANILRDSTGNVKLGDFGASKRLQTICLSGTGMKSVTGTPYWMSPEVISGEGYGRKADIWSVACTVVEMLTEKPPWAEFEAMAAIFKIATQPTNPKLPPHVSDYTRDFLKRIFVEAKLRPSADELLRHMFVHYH

Block 1
Compound: Cc1ncsc1-c1ccc(C(CO)NC(=O)C2CC(O)CN2C(=O)C(C(C)C)n2cc(-c3ccc(COc4c(-c5c(C)c(F)cc6[nH]ncc56)c(C5CC5)cc5c(N6CC7CC6CN7)nc(OC6CCOCC6)nc45)cc3)nn2)cc1 (centres unmarked)
host	route	dose	time	body weight
mouse, PK-59 xenograft	–	1 mg/kg	day 7	24.8 g and 26.1 g and 26.3 g and 24.9 g and 30.5 g
mouse, HT-29 xenograft	sc	30 mg/kg once daily	day 15	19.2 g and 17.1 g and 21.1 g and 18.4 g and 20 g
mouse, PK-59 xenograft	–	1 mg/kg	day 10	24.3 g and 30.3 g and 25.4 g and 24.7 g
mouse, HPAC xenograft	–	30 mg/kg once weekly	day 7	23.5 g
mouse, PK-59 xenograft	subcutaneous	30 mg/kg once daily	day 4	18.6 g and 21.9 g and 20.1 g and 19.3 g and 17.9 g
mouse, lung LXFA sample A PDX	–	10 mg/kg twice weekly	day 0	26.5 g
mouse, lung LXFA sample A PDX	–	10 mg/kg twice weekly	day 15	30.6 g and 27.5 g and 27.7 g

Block 2
Structure (SMILES): Cc1ccc(O)c(C)c1-c1cnc2[nH]c(-c3cnc(N4CCC5(CC4)CC(N4CCN(c6ccc(NC7CCC(=O)NC7=O)cc6F)CC4)CO5)nc3)cc2c1C#N (centres unmarked)
PKMYT1: Membrane-associated tyrosine- and threonine-specific cdc2-inhibitory kinase (PKMYT1, Homo sapiens, UniProt Q99640)
UniProt Q99640, sequence (whole entry, looked up): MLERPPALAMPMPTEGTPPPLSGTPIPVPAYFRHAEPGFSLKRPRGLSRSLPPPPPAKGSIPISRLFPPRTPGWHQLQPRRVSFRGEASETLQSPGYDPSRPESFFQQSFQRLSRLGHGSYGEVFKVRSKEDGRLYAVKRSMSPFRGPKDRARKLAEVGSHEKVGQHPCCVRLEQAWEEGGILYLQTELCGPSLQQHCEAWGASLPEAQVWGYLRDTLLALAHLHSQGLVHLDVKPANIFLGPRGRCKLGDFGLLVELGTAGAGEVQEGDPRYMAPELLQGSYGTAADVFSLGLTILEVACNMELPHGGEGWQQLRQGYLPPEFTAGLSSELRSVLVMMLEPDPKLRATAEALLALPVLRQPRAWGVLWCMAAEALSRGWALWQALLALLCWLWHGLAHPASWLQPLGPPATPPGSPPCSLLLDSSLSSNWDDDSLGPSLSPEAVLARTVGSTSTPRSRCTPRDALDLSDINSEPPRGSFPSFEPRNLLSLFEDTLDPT
tested on	refers to	tested at	inhibition [%]
MDA-MB-157	CDK1 phospho-Thr14	0.0169 nM	-58
HuCCT-1	CDK1 phospho-Thr14	4.12 nM	23.5
PKMYT1	–	0.00046 µM	4.04
HuCCT-1	CDK1 phospho-Thr14	111.11 nM	64.6
PKMYT1	–	0.3333 µM	100
HuCCT-1	CDK1 phospho-Thr14	1.37 nM	16.1
PKMYT1	–	0.00137 µM	21.7
PKMYT1	–	0.03704 µM	94
MDA-MB-157	CDK1 phospho-Thr14	1000 nM	62

Block 3 — cell line: MDA-MB-468; effect on: cell viability; method: CellCounting-Lite; tested at: 8.23 nM; temperature: 37 °C; direction: higher = more viable cells
SMILES	luminescence signal
CCn1cnc2c(NCc3nc4cc(Cl)c(Cl)cc4[nH]3)nc(N3CCN(c4ccccn4)CC3)nc21	435000 a.u. and 484000 a.u. and 472000 a.u.
CC(=O)N1CCN(c2nc(NCc3nc4cc(Cl)c(Cl)cc4[nH]3)c3ncn(-c4cnn(C)c4)c3n2)CC1	446000 a.u. and 550000 a.u. and 461000 a.u.
CCn1cnc2c(NCc3nc4ccc(F)c(F)c4[nH]3)nc(N3CCn4ncnc4C3)nc21	465000 a.u. and 422000 a.u. and 479000 a.u.
CCn1cnc2c(NCc3nc4cc(Cl)c(Cl)cc4[nH]3)nc(N3CCn4ncnc4C3)nc21	248000 a.u. and 193000 a.u. and 206000 a.u.
CCCCOc1nc(NCc2nc3cc(Cl)c(Cl)cc3[nH]2)c2ncn(CC)c2n1	486000 a.u. and 471000 a.u. and 402000 a.u.
CC(=O)N1CCN(c2nc(NCc3nc4cc(Cl)c(Cl)cc4[nH]3)c3ncn(C)c3n2)CC1	451000 a.u. and 412000 a.u. and 417000 a.u.
Cn1cc(-n2cnc3c(NCc4nc5cc(Cl)c(Cl)cc5[nH]4)nc(N4CCNCC4)nc32)cn1	429000 a.u. and 408000 a.u. and 480000 a.u.
CCn1cnc2c(NCc3nc4cc(Cl)c(Cl)cc4[nH]3)nc(N3CCN(C(=O)CNC(C)=O)CC3)nc21	239000 a.u. and 197000 a.u. and 210000 a.u.
CCn1cnc2c(NCc3nc4cc(Cl)c(Cl)cc4[nH]3)nc(N3CCN(C(=O)[C@H](C)NC(C)=O)CC3)nc21	483000 a.u. and 429000 a.u. and 516000 a.u.
CCn1cnc2c(NCc3nc4cc(Cl)c(Cl)cc4[nH]3)nc(N3CCN(Cc4ccncc4)CC3)nc21	411000 a.u. and 463000 a.u. and 421000 a.u.
CCn1cnc2c(NCc3nc4cc(F)c(F)cc4[nH]3)nc(N3CCn4ncnc4C3)nc21	444000 a.u. and 413000 a.u. and 388000 a.u.
CCn1cnc2c(NCc3nc4cc(Cl)c(Cl)cc4[nH]3)nc(N3CCN(C(=O)c4ccccn4)CC3)nc21	109000 a.u. and 110000 a.u. and 135000 a.u.
CCn1cnc2c(NCc3nc4cc(Cl)c(Cl)cc4[nH]3)nc(N3CCN(C(=O)c4cccnc4)CC3)nc21	92800 a.u. and 91100 a.u. and 104000 a.u.
CC(=O)N1CCN(c2nc(NCc3nc4cc(Cl)c(Cl)cc4[nH]3)c3ncn(C(C)C)c3n2)CC1	490000 a.u. and 486000 a.u. and 466000 a.u.
CCn1cnc2c(NCc3nc4cc(Cl)c(Cl)cc4[nH]3)nc(N3CCN(C(=O)c4ccccc4)CC3)nc21	393000 a.u. and 405000 a.u. and 423000 a.u.
CCn1cnc2c(NCc3nc4cc(Cl)c(Cl)cc4[nH]3)nc(N3CCN(C(=O)c4ccncc4)CC3)nc21	108000 a.u. and 95500 a.u. and 109000 a.u.
CCn1cnc2c(NCc3nc4cc(Cl)c(Cl)cc4[nH]3)nc(N3CCN(S(C)(=O)=O)CC3)nc21	425000 a.u. and 416000 a.u. and 406000 a.u.
CCn1cnc2c(NCc3nc4cc(Cl)c(Cl)cc4[nH]3)nc(N3CCC(NC(C)=O)CC3)nc21	397000 a.u. and 477000 a.u. and 448000 a.u.

Block 4 — effect on: thermal unfolding; method: differential scanning fluorimetry; tested at: 5.5 µM; direction: higher = more unfolded
SMILES: C[C@@H]1CN(c2ccc(-c3cc(C(=O)NCCOCCOCCOCCOCCNC(=O)/C=C/c4[nH]cc(C(=O)N[C@@H](CC(N)=O)c5ccc(F)c(Cl)c5)c4-c4ccc(Cl)cc4F)ccc3F)cc2NC(=O)c2c[nH]c(=O)cc2C(F)(F)F)C[C@H](C)N1C
WDR5: WD repeat-containing protein 5 (WDR5, Homo sapiens, UniProt P61964)
DCAF1: DDB1- and CUL4-associated factor 1 (DCAF1, Homo sapiens, UniProt Q9Y4B6)
UniProt Q9Y4B6, sequence (whole entry, looked up): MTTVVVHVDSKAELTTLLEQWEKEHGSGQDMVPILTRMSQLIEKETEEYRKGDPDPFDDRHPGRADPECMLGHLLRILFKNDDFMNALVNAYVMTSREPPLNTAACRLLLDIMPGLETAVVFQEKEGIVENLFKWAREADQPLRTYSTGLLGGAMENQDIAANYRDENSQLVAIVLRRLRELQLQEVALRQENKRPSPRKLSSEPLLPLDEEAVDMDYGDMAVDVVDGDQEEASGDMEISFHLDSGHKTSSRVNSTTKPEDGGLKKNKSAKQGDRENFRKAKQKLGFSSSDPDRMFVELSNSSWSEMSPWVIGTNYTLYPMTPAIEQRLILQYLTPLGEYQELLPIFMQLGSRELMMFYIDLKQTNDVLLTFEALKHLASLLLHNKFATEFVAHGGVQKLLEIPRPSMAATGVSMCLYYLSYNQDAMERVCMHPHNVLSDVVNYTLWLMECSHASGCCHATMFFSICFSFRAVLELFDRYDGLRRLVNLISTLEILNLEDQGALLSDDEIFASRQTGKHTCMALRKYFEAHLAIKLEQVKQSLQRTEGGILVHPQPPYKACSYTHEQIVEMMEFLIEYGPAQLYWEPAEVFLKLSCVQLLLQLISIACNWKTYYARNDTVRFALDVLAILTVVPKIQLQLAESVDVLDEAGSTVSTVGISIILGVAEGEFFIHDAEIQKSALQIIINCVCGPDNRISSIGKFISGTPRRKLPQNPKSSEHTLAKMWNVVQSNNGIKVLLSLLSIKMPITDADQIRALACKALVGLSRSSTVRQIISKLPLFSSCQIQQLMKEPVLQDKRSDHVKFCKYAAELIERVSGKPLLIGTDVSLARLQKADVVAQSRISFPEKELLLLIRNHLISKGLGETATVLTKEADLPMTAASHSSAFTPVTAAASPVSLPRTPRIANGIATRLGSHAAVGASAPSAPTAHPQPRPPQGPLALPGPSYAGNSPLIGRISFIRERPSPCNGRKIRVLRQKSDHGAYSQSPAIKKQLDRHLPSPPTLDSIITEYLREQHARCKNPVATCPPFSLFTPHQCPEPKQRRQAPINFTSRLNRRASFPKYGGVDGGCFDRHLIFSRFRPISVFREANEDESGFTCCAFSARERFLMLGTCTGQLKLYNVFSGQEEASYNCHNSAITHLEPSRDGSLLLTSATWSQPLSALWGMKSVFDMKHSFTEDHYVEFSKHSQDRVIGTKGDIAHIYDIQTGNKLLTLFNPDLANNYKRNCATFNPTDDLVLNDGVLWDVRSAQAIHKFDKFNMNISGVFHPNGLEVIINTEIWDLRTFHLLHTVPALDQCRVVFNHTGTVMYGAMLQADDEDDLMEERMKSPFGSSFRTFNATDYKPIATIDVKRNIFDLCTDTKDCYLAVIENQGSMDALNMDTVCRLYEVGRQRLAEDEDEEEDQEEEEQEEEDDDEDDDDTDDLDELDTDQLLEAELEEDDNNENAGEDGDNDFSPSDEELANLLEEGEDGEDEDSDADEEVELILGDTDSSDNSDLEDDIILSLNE
target	temperature	SYPRO Orange fluorescence
WDR5	81.41 °C	44400 a.u.
WDR5	87.01 °C	53700 a.u.
WDR5	44.2 °C	15200 a.u.
DCAF1	43.8 °C	12600 a.u.
WDR5	79.21 °C	38100 a.u.
DCAF1	85.21 °C	40000 a.u.
WDR5	36.2 °C	13500 a.u.
DCAF1	80.41 °C	44800 a.u.
DCAF1	78.21 °C	47000 a.u.
DCAF1	33 °C	9790 a.u.
WDR5	77.21 °C	31800 a.u.

Block 5 — effect on: enzyme activity; action: inhibitor; method: Ub-TR-FRET; sample: HECT domain; tested at: 0.01524 µM; direction: higher = more chain formation
Target: E3 ubiquitin-protein ligase NEDD4, HECT domain (Homo sapiens, UniProt P46934)
Construct (P46934 938-1319, limits assumed): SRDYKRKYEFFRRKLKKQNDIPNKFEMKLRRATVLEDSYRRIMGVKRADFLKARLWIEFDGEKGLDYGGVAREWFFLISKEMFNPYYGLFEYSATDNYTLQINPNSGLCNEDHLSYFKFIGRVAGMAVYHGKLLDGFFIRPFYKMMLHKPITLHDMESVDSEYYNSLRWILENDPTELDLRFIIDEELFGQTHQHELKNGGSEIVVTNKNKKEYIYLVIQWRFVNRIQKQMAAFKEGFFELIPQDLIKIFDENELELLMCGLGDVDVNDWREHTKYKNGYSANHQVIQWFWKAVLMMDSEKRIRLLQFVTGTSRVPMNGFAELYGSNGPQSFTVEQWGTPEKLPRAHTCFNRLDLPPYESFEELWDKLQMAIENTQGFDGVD
Compound	ubiquitin chain formation AUC
CCOC(=O)/C=C/CNCCCCN1c2cc(Cl)ccc2C(=O)N(C)c2ccccc21.O=C(O)/C=C\C(=O)O	92100 a.u. and 91600 a.u. and 92400 a.u.
CCOC(=O)/C=C/CNCCCCN1c2cc(Cl)ccc2CCc2cnn(C)c21.O=C(O)/C=C\C(=O)O	71300 a.u. and 72900 a.u. and 67200 a.u. and 67600 a.u. and 70800 a.u. and 68700 a.u.
CN(C)C/C=C/C(=O)NCCCN1c2ccccc2CCc2ccc(Cl)cc21	133000 a.u. and 130000 a.u.
CCOC(=O)/C=C/CNCCCCN1c2cc(Cl)ccc2COc2ccccc21.O=C(O)/C=C\C(=O)O	93200 a.u. and 93500 a.u.
CCOC(=O)/C=C/CNCCCN1c2ccccc2CCc2ccc(Cl)cc21	46900 a.u. and 44200 a.u. and 44900 a.u.
CNC(=O)/C=C/CNCCCCN1c2ccccc2CCc2ccc(Cl)cc21.Cl	71500 a.u. and 89600 a.u. and 86600 a.u. and 88100 a.u. and 70400 a.u. and 70100 a.u.
Cl.NC(=O)/C=C/CNCCCN1c2ccccc2CCc2ccc(Cl)cc21	139000 a.u.

Block 6 — tested at: 1 µM
Structure (SMILES): CC[C@@]1(c2cccc(C(F)(F)F)c2)C2=C(Nc3n[nH]cc31)[C@H](F)C(C)(C)CC2=O (single isomer, unassigned)
target	effect on	method	relative to	remaining binding
PIM1 (Homo sapiens, UniProt P11309)	kinase binding	KINOMEscan	DMSO control	100%
MAP3K2 (Homo sapiens, UniProt Q9Y2U5)	kinase binding	KINOMEscan	DMSO control	100%
EGFR (Homo sapiens, UniProt P00533, G719S)	binding	competition with immobilised ligand	–	100%
RIPK2 (Homo sapiens, UniProt O43353)	binding	competition with immobilised ligand	–	91%
CHEK1 (Homo sapiens, UniProt O14757)	binding	competition with immobilised ligand	–	97%
MAP3K9 (Homo sapiens, UniProt P80192)	kinase binding	KINOMEscan	DMSO control	92%
BRSK1 (Homo sapiens, UniProt Q8TDC3)	binding	competition with immobilised ligand	–	78%
BRAF (Homo sapiens, UniProt P15056)	kinase binding	KINOMEscan	DMSO control	95%
Receptor-type tyrosine-protein kinase FLT3, autoinhibited (FLT3, Homo sapiens, UniProt P36888)	binding	competition with immobilised ligand	–	97%
Tyrosine-protein kinase ABL1, phosphorylated (ABL1, Homo sapiens, UniProt P00519, Y253F)	binding	competition with immobilised ligand	–	56%
Non-receptor tyrosine-protein kinase TYK2, JH2 (TYK2, Homo sapiens, UniProt P29597)	binding	competition with immobilised ligand	–	82%
HASPIN (Homo sapiens, UniProt Q8TF76)	kinase binding	KINOMEscan	DMSO control	86%
EPHA7 (Homo sapiens, UniProt Q15375)	binding	competition with immobilised ligand	–	100%
PRKG1 (Homo sapiens, UniProt Q13976)	kinase binding	KINOMEscan	DMSO control	100%
PLK2 (Homo sapiens, UniProt Q9NYY3)	kinase binding	KINOMEscan	DMSO control	81%
PDGFRB (Homo sapiens, UniProt P09619)	binding	competition with immobilised ligand	–	100%
HIPK3 (Homo sapiens, UniProt Q9H422)	kinase binding	KINOMEscan	DMSO control	100%
CDC42BPB (Homo sapiens, UniProt Q9Y5S2)	kinase binding	KINOMEscan	DMSO control	100%

Block 7 — cell line: U-87 MG; tested at: concentration not given; relative to: DMSO
Compound: CCN1/C(=C/C=C2\CCCC(/C=C/C3=[N+](CC)c4ccccc4C3(C)C)=C2NCCCCCCCCN2CCC(Nc3nc4ccccc4n3Cc3ccc(F)cc3)CC2)C(C)(C)c2ccccc21
refers to	log2 fold change
PCDHB7 mRNA	-2.32
WDR25 mRNA	1.03
HAPLN3 mRNA	-1.58
IQCG mRNA	1.91
CEP85 mRNA	-1.08
DHRS9 mRNA	-4.28
PKDCC mRNA	-1.92
MFSD3 mRNA	-0.837
SSPN mRNA	-0.909
PGAP3 mRNA	-0.974
DPF3 mRNA	-1.75
RNF11 mRNA	0.977
B3GLCT mRNA	-0.857
DCHS2 mRNA	1.47
WDR54 mRNA	-0.833
CEBPB mRNA	0.805

Block 8 — setting: 10-fold dilution, LC-MS; added: β-mercaptoethanol
Structure (SMILES)	dissociation half-life [min]
N#C/C(=C\C1CC1)C(=O)N1CCC[C@H]1Cn1nc(-c2ccc(Oc3ccccc3)cc2F)c2c(N)ncnc21	1.12 ± 0.05
CN(C1COC1)C(C)(C)/C=C(\C#N)C(=O)N1CCC[C@H]1Cn1nc(-c2ccc(Oc3ccccc3)cc2F)c2c(N)ncnc21	0.85 ± 0.05
CC(C)(C=C(C#N)C(=O)N1CCCC1Cn1nc(-c2ccc(Oc3ccccc3)cc2F)c2c(N)ncnc21)N1CCOCC1 (centres unmarked)	2.46 ± 0.01

Excerpt of the above (block 5):
Compound	ubiquitin chain formation AUC
CCOC(=O)/C=C/CNCCCCN1c2cc(Cl)ccc2C(=O)N(C)c2ccccc21.O=C(O)/C=C\C(=O)O	92100 a.u. and 91600 a.u. and 92400 a.u.
CCOC(=O)/C=C/CNCCCCN1c2cc(Cl)ccc2CCc2cnn(C)c21.O=C(O)/C=C\C(=O)O	71300 a.u. and 72900 a.u. and 67200 a.u. and 67600 a.u. and 70800 a.u. and 68700 a.u.
CN(C)C/C=C/C(=O)NCCCN1c2ccccc2CCc2ccc(Cl)cc21	133000 a.u. and 130000 a.u.
CCOC(=O)/C=C/CNCCCCN1c2cc(Cl)ccc2COc2ccccc21.O=C(O)/C=C\C(=O)O	93200 a.u. and 93500 a.u.
CCOC(=O)/C=C/CNCCCN1c2ccccc2CCc2ccc(Cl)cc21	46900 a.u. and 44200 a.u. and 44900 a.u.
CNC(=O)/C=C/CNCCCCN1c2ccccc2CCc2ccc(Cl)cc21.Cl	71500 a.u. and 89600 a.u. and 86600 a.u. and 88100 a.u. and 70400 a.u. and 70100 a.u.
Cl.NC(=O)/C=C/CNCCCN1c2ccccc2CCc2ccc(Cl)cc21	139000 a.u.
